Literature values as cited in several papers.
Lines come from different studies, so protocols differ. Several values in a cell are separate wells, animals, samples, runs or records. ± marks the error that the study gave.

The pKa of `N[C@@H](Cc1c[nH]c2ccccc12)C(=O)NO` is reported as 8.
The QTc interval of `CN[C@H]1CC[C@@H](c2ccc(Cl)c(Cl)c2)c2ccccc21` is reported as 370 ms (human; 2250 mg, at admission, added: diazepam 200 mg and temazepam 400 mg).
`Cc1nc2cccc(OCC(C)(C)C(=O)NC(C)C)c2c(N)c1C(=O)O` gave an NOAEL of 1000 mg/kg/day (pregnant rat; oral, embryo-fetal development, gestation days 6 to 20, highest dose tested).
With `CC1(C)C(C=C(Cl)Cl)C1C(=O)OC(C#N)c1ccc(F)c(Oc2ccccc2)c1` (stereo not shown) the LD50 was 900 mg/kg (rat or mouse; oral).
`O=C(O)C(F)(F)C(F)(F)C(F)(F)C(F)(F)C(F)(F)C(F)(F)C(F)(F)F` gave an elimination half-life of 1.5 to 10 years (human).
The dose-normalized Cmax of `CC(C)(c1ccc(O)cc1)c1ccc(O)cc1` is reported as 9.88 (nmol/mL)/(mmol/kg) and ~10 (nmol/mL)/(mmol/kg) (item: free compound; rhesus monkey female, plasma; oral, 0.4 mg/kg).
`COc1cc(/C=C/C(=O)CC(=O)/C=C/c2ccc(O)c(OC)c2)ccc1O`: acute toxicity “not toxic” (mice and rats; oral, up to 5000 mg/kg, 14 days).
`CN1CCN(C2=Nc3ccccc3Oc3ccc(Cl)cc32)CC1` gave a Cmax of 0.14 µM (human, plasma; concentration not given, median of reported values).
`CN[C@H]1C(=O)N[C@@H]2Cc3ccc(cc3)Oc3cc4cc(c3O[C@@H]3O[C@H](C(=O)O)[C@@H](O)[C@H](O)[C@H]3NC(=O)CCCCCCCCC(C)C)Oc3ccc(cc3Cl)[C@@H](O)[C@@H]3NC(=O)[C@H](NC(=O)[C@@H]4NC(=O)[C@@H](NC2=O)c2cc(cc(O)c2Cl)Oc2cc1ccc2O)c1ccc(O)c(c1)-c1c(O[C@H]2O[C@H](CO)[C@@H](O)[C@H](O)[C@@H]2O)cc(O)cc1[C@@H](C(=O)NCCCN(C)C)NC3=O` gave a half-life of 204 h (adults mostly with skin infections; dose not given, population PK).
With `CCCCCOc1ccc(-c2cc(-c3ccc(C(=O)N[C@H]4C[C@@H](O)[C@@H](O)NC(=O)[C@@H]5[C@@H](O)[C@@H](C)CN5C(=O)[C@H]([C@H](O)CC(N)=O)NC(=O)[C@H]([C@H](O)[C@@H](O)c5ccc(O)c(OS(=O)(=O)O)c5)NC(=O)[C@@H]5C[C@@H](O)CN5C(=O)[C@H]([C@@H](C)O)NC4=O)cc3)no2)cc1` the Cmax was 10500 ng/mL (adults with invasive candidiasis; 100 mg daily, steady state).
Under “surface partition coefficient”, `CCCCCCCCCCCCCCCC[N+](C)(C)C` is recorded as 7.44e-06 m (air-water interface).
With `Clc1ccc(Cl)c(-c2c(Cl)ccc(Cl)c2Cl)c1Cl` the enantiomeric fraction was 0.49 (Sprague-Dawley rat; intraperitoneal, racemate dosed).
For `CC1(C)CCC(CN2CCN(c3ccc(C(=O)NS(=O)(=O)c4ccc(NCC5CCOCC5)c([N+](=O)[O-])c4)c(Oc4cnc5[nH]ccc5c4)c3)CC2)=C(c2ccc(Cl)cc2)C1`, the AUC ratio was 0.36 (human patients; 400 mg once daily, steady state, added: ivosidenib 500 mg once daily 14 days; baseline: with over without ivosidenib).
`Nc1nc(N)nc(N)n1` — result for kidney findings: “negative” (wet-mount and histology; rat fetuses and neonates, kidney; 1000 mg/kg/day to dams).
The brain penetration of `C[n+]1ccccc1/C=N/O` is reported as 10% (microdialysis; rat; intravenous, 10, 50, 100 mg/kg).
`O=S(=O)(O)C(F)(F)C(F)(F)C(F)(F)C(F)(F)C(F)(F)C(F)(F)C(F)(F)C(F)(F)F`: “maximum whole-body concentration” 33.7 ng/g (juvenile Chinook salmon, whole body wet weight; concentration not given, field-collected).
`CC[NH][Pt]([Cl])([Cl])([NH]CC)([O]C(=O)CCC(=O)OCC)[O]C(=O)CCC(=O)OCC`: “platinum in blood pellet” about 60% (mouse; po, dose not given, 24 h).
For `CC(C)[C@@H](Nc1ccc(C(F)(F)F)cc1Cl)C(=O)OC(C#N)c1cccc(Oc2ccccc2)c1` (stereo partly shown), the LD50 was 26 mg/kg (rat or mouse; oral).
For `CC[C@H](C)[C@H](NC(=O)[C@H](CCCCN)NC(=O)[C@H](CCCCN)NC(=O)[C@H](Cc1c[nH]cn1)NC(=O)[C@H](CC(C)C)NC(=O)[C@H](CCCCN)NC(=O)[C@H](Cc1ccccc1)NC(C)=O)C(=O)N[C@@H](CC(C)C)C(=O)N[C@@H](CCCCN)C(=O)N[C@H](C(=O)N[C@@H](CC(C)C)C(N)=O)C(C)C`, the hemolysis was 0 ± 0.5% (horse erythrocytes 5 % v/v; 150 µM).
Under “maximum tolerated dose”, `C=CC(=O)N1CCC(Oc2cc3c(Nc4ccc(Cl)c(Cl)c4F)ncnc3cc2OC)CC1` is recorded as 18 mg/day (advanced solid tumour patients; continuous dosing).
`CCCCCOc1ccc(-c2cc(-c3ccc(C(=O)N[C@H]4C[C@@H](O)[C@@H](O)NC(=O)[C@@H]5[C@@H](O)[C@@H](C)CN5C(=O)[C@H]([C@H](O)CC(N)=O)NC(=O)[C@H]([C@H](O)[C@@H](O)c5ccc(O)c(OS(=O)(=O)O)c5)NC(=O)[C@@H]5C[C@@H](O)CN5C(=O)[C@H]([C@@H](C)O)NC4=O)cc3)no2)cc1` — result for “intrinsic biliary clearance”: 25.5 ± 15.7 mL/min/kg (human hepatocytes, adult).
For `CC[C@H](C)[C@H](NC(=O)[C@H](CCCCN)NC(=O)[C@H](CCCCN)NC(=O)[C@H](Cc1c[nH]cn1)NC(=O)[C@H](CC(C)C)NC(=O)[C@H](CCCCN)NC(=O)[C@@H](N)CCCCN)C(=O)N[C@@H](CC(C)C)C(=O)N[C@@H](CCCCN)C(=O)N[C@H](C(=O)N[C@@H](CC(C)C)C(N)=O)C(C)C`, the hemolysis was 0 ± 1.1% (horse erythrocytes 5 % v/v; 150 µM).
For `CNCc1ccc(-c2[nH]c3cc(F)cc4c3c2CCNC4=O)cc1`, toxicity read “not toxic” (mouse; 50 mg/kg, 6 months, repeated 5-day schedule).
For `Cc1ccc(OCC(=O)N(Cc2cccs2)c2ccn[nH]2)cc1`, the NOAEL was 100 mg/kg/day (Crl:CD(SD) rats, male and female; 28 days).
With `Clc1cc2c(cc1Cl)Oc1cc(Cl)c(Cl)cc1O2` the body burden was about 1 ppb (zebrafish embryos; waterborne, 0.2 ppb, repeated at 4.8 and 31.2 hpf).
`COc1ccccc1Oc1c(NS(=O)(=O)c2ccc(C(C)(C)C)cc2)nc(-c2ncccn2)nc1OCCO` has a Cmax of about 30 µM (rat, plasma; concentration not given, at LOAEL).
`NC(=O)N1c2ccccc2C=Cc2ccccc21` — result for “therapeutic plasma concentration”: 4 to 12 µg/mL (human, plasma; total concentration, therapeutic range).
`CN(C)CCO` has a dose eliminated of about 13.5% (male Wistar rat; intravenous, 11 mg/kg, 24 h).
With `O=C1C=CC(=O)N1CCCCC[18F]` the tumour uptake was 33.2 ± 4.79 %ID/g (mouse, INS1 tumour, tumour; [Cys40]-exendin-4 conjugate).
With `[Cl][Mn][Cl]` the Cmax was 0.053 µM (plasma; concentration not given).
Under “maximum tolerated dose”, `CC(C)C[C@H](NC(=O)[C@H](Cc1ccccc1)NC(=O)c1cnccn1)B(O)O` is recorded as 1.2 mg/m² (children with refractory solid tumours; intravenous).
With `CCCCCCCCCC(=O)N[C@@H](Cc1c[nH]c2ccccc12)C(=O)N[C@H](CC(N)=O)C(=O)N[C@@H](CC(=O)O)C(=O)N[C@@H]1C(=O)NCC(=O)N[C@@H](CCCN)C(=O)N[C@@H](CC(=O)O)C(=O)N[C@H](C)C(=O)N[C@@H](CC(=O)O)C(=O)NCC(=O)N[C@H](CO)C(=O)N[C@@H]([C@H](C)CC(=O)O)C(=O)N[C@@H](CC(=O)c2ccccc2N)C(=O)O[C@@H]1C` the tissue concentration was 74% (microdialysis; healthy human, soft tissue; intravenous, dose not given; baseline: free plasma).
For `O=C1NC(=O)C(c2ccccc2)(c2ccccc2)N1`, “Cmax at LOAEL” read about 135 µM (rabbit, plasma).
`COc1ccc(C(CN(C)C)C2(O)CCCCC2)cc1` (stereo not shown): “discontinuation due to hypertension” 0.7 to 1.3% (adult patients; dose not given; baseline: patients).
For `C[C@@H]1[C@H](O)[C@@H](C)/C=C/C=C/C=C/C=C/C=C/C=C/C=C/[C@H](O[C@@H]2O[C@H](C)[C@@H](O)[C@H](N)[C@@H]2O)C[C@@H]2O[C@](O)(C[C@@H](O)C[C@@H](O)[C@H](O)CC[C@@H](O)C[C@@H](O)CC(=O)O[C@H]1C)C[C@H](O)[C@H]2C(=O)O`, the all-cause mortality was at most 24% (paediatric patients, invasive candidiasis; dose not given, initial therapy).
`O=C1NC(=O)C(c2ccccc2)(c2ccccc2)N1` — result for “therapeutic plasma concentration”: 10 to 20 µg/mL (human, plasma; total concentration, therapeutic range).
The TDLo of `CN(CCCC(=O)O)N=O` is reported as 6800 mg/kg (rat; oral).
With `CC1=C(/C=C/C(C)=C/C=C/C(C)=C/C(=O)Nc2ccc(O)cc2)C(C)(C)CCC1` the plasma concentration was 9.9 µM (paediatric neuroblastoma patients; 2450 mg/m2 per day, maximum tolerated dose).
With `CCOc1ccc2cc(-c3nn(CC4CCN(C)CC4)c4ncnc(N)c34)ccc2n1` the Cmax was 3 to 4 µM (mouse, plasma; oral, 30 mg/kg).
For `Cn1c(=O)c2[nH]cnc2n(C)c1=O`, the logP was -0.17 (octanol-water).

Repeated from above:
For `O=C1NC(=O)C(c2ccccc2)(c2ccccc2)N1`, “Cmax at LOAEL” read about 135 µM (rabbit, plasma).
`COc1ccc(C(CN(C)C)C2(O)CCCCC2)cc1` (stereo not shown): “discontinuation due to hypertension” 0.7 to 1.3% (adult patients; dose not given; baseline: patients).
For `C[C@@H]1[C@H](O)[C@@H](C)/C=C/C=C/C=C/C=C/C=C/C=C/C=C/[C@H](O[C@@H]2O[C@H](C)[C@@H](O)[C@H](N)[C@@H]2O)C[C@@H]2O[C@](O)(C[C@@H](O)C[C@@H](O)[C@H](O)CC[C@@H](O)C[C@@H](O)CC(=O)O[C@H]1C)C[C@H](O)[C@H]2C(=O)O`, the all-cause mortality was at most 24% (paediatric patients, invasive candidiasis; dose not given, initial therapy).
`O=C1NC(=O)C(c2ccccc2)(c2ccccc2)N1` — result for “therapeutic plasma concentration”: 10 to 20 µg/mL (human, plasma; total concentration, therapeutic range).
